Values quoted from earlier work that unrelated publications cite.
Lines come from different studies, so protocols differ. Values joined by “and” are separate records of one study, mostly repeats; a detail may differ. ± marks the error that the study gave.
Sequence of UniProt Q05941 (whole entry, looked up): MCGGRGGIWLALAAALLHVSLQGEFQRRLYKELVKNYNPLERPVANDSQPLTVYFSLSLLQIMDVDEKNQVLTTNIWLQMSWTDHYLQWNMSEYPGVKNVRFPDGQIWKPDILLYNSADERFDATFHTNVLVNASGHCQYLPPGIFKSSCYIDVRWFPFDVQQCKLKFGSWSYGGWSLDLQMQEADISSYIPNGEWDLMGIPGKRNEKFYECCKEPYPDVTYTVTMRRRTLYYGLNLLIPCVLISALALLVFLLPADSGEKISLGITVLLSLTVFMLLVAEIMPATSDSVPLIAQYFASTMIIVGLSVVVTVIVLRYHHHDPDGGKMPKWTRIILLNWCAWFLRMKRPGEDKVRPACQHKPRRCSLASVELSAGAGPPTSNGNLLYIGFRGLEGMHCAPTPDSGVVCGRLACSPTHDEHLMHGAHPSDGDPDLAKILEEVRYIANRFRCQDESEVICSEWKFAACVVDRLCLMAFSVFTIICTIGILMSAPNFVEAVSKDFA

CC(=O)c1c(C)c2cnc(Nc3ccc(N4CCNCC4)cn3)nc2n(C2CCCC2)c1=O  maximum tolerated dose (male rat): 30 mg/kg
O=C(O)C(F)(F)C(F)(F)C(F)(F)C(F)(F)C(F)(F)C(F)(F)C(F)(F)C(F)(F)C(F)(F)F  plasma fraction unbound (plasma): 0.0027
Nc1ncnc2c1ncn2[C@@H]1O[C@H](COP(=O)(O)OP(=O)(O)OP(=O)(O)O)[C@@H](O)[C@H]1O  rate (dnaK (Escherichia coli, UniProt P0A6Y8, E213C/T22C); 2000 nM, 35 °C): ~3 s⁻¹
O=C(NN1CCCCC1)c1nc(-c2ccc(Cl)cc2Cl)n(-c2ccc(Cl)cc2)c1Cl  Ki (CB1 receptor; binding): 27 nM
c1cc2c3c(cccc3c1)CC2  amount in tissue (zebrafish embryos, whole embryo; 385.5 ng/well, 48 hpf, single exposure): 2.1 ng/well and 1.81 ng/well and 1.49 ng/well
C[C@@H](O[C@H]1OCCN(Cc2n[nH]c(=O)[nH]2)[C@H]1c1ccc(F)cc1)c1cc(C(F)(F)F)cc(C(F)(F)F)c1  fraction unbound (dog): 0.001
O=C(O)C(F)(F)C(F)(F)C(F)(F)C(F)(F)C(F)(F)C(F)(F)C(F)(F)F  pKa (ESI-MS, literature value): < 1
O=C(O)C(F)(F)C(F)(F)C(F)(F)C(F)(F)C(F)(F)F  plasma fraction unbound (plasma): 0.0068
NC(=O)c1nc(F)c[nH]c1=O  lung concentration (hamster; intraperitoneal, 6.25 mg): 50.2 µg/g
CCN(CCO)CCCC(C)Nc1ccnc2cc(Cl)ccc12 (centres unmarked)  blood-to-plasma ratio (human): 7.2
c1cc2ccc3cccc4ccc(c1)c2c34  amount in tissue (zebrafish embryos, whole embryo; 234.61 ng/well, 48 hpf, single exposure): 37.5 ng/well and 40.4 ng/well and 50.6 ng/well
CN1CCc2[nH]c3ccccc3c2CC1.O=C(O)/C=C/C(=O)O  Hill coefficient (Chrna7 (Rattus norvegicus, UniProt Q05941); inhibitor; added: 100 µM acetylcholine): 1.6 ± 0.1
COC(=O)[C@H]1[C@@H](c2ccc(C)cc2)C[C@@H]2CC[C@H]1N2C/C=C/C[18F]  tissue concentration (PET; rat, striatum; dose not given, 24 min): 1.01 MBq/cc and 0.765 MBq/cc and 0.826 MBq/cc and 0.932 MBq/cc and 0.944 MBq/cc
CC(CC(c1ccccc1)c1ccccc1)NC(C)(C)C (centres unmarked)  fraction unbound (dog): 0.148
O=C(O)C1OC(Oc2ccc(S(=O)(=O)c3ccc(O)cc3)cc2)C(O)C(O)C1O (centres unmarked)  elimination half-life (refers to: BPS glucuronide; human volunteers, plasma; oral, 0.1 mg/kg deuterated BPS): 9.3 h
Cc1cccc2c1ccc1cc(C(C)C)ccc12  Km (metabolism, substrate; human liver microsomes): 0.002 µM
O=C(O)C(F)(F)C(F)(F)C(F)(F)C(F)(F)C(F)(F)C(F)(F)C(F)(F)C(F)(F)C(F)(F)C(F)(F)F  activity (CYP1A2; concentration not given): inactive
Nc1ccc(C(=O)O)cc1  LD50 (dogs and rats): > 2000 mg/kg
ClC1=C(Cl)[C@]2(Cl)[C@@H]3[C@@H]4C[C@@H]([C@H]5O[C@@H]45)[C@@H]3[C@@]1(Cl)C2(Cl)Cl  logP: 4.88
O=S(=O)(O)C(F)(F)C(F)(F)C(F)(F)C(F)(F)C(F)(F)C(F)(F)F  half-life (human): 86400 h
CC(C)OC(=O)[C@@H](N)Cc1ccc(OP2(=O)CO[C@@H](Cn3ccc(N)nc3=O)CO2)cc1 (some centres unmarked)  half-life (PBS; pH 6.5, Sp isomer): 2.02 h
Cc1ccc(C(=O)c2cc(O)c(O)c([N+](=O)[O-])c2)cc1  fraction unbound (dog): 0.05
Cc1ccc2cc(C)ccc2c1  amount in tissue (zebrafish embryos, whole embryo; 390.55 ng/well, 48 hpf, single exposure): 2.26 ng/well and 2.21 ng/well and 2.25 ng/well
CCCSc1ccc2nc(NC(=O)OC)[nH]c2c1  solubility (simulated gastric fluid): ~500 µg/mL
CCc1cccc(C)c1N(C(=O)CCl)C(C)COC (centres unmarked)  log Kow: 3.13
CC[C@H](C)C[C@H](C)CCCCCCCCC(=O)N[C@H]1C[C@@H](O)[C@@H](NCCN)NC(=O)[C@@H]2[C@@H](O)CCN2C(=O)[C@H]([C@H](O)CCN)NC(=O)[C@H]([C@H](O)[C@@H](O)c2ccc(O)cc2)NC(=O)[C@@H]2C[C@@H](O)CN2C(=O)[C@H]([C@@H](C)O)NC1=O  fraction excreted in faeces (human): < 1%
Nc1ccncc1  free Cmax (plasma; literature data): 230 nM
CCCSc1ccc2nc(NC(=O)OC)[nH]c2c1  solubility (simulated gastric fluid; pH 1.2): ~500 µg/mL
NC1CCCCC1N.O=C([O-])C(=O)[O-].[Pt+2] (centres unmarked)  AUC (refers to: total platinum; mouse, plasma; intravenous, 8.34 mg Pt/kg): 9830 ng·h/mL
COc1ccc(C[C@@H](C)[C@@H](C)Cc2ccc(OC)c(OC)c2)cc1OC  LD50 (rat; intravenous): 980 mg/kg
c1ccc2c(c1)-c1cccc3c1c-2cc1ccccc13  amount in tissue (zebrafish embryos, whole embryo; 630.75 ng/well, 48 hpf, single exposure): 0.6 ng/well and 0.519 ng/well and 0.365 ng/well
O=C(O)C(F)(F)C(F)(F)C(F)(F)C(F)(F)C(F)(F)C(F)(F)C(F)(F)F  serum concentration (healthy adult female aged 35 years, serum; 0.187 ng/kg/day): 2 ng/mL
O=C(O)C(F)F  pKa (potentiometry): 1.24
CC(C)CNC(=O)[C@@H](N)Cc1ccc(OP2(=O)CO[C@@H](Cn3cnc4c(N)ncnc43)CO2)cc1 (some centres unmarked)  half-life (PBS; pH 6.5, Rp isomer): 12.8 h
CC(=O)C[C@@H](c1ccccc1)c1c(O)c2ccccc2oc1=O  Tmax (human, fasted; oral, 15 mg single dose, added: racemic warfarin 30 mg): 1.33 h
c1ccc2c(c1)cc1ccc3cccc4ccc2c1c34  amount in tissue (zebrafish embryos, whole embryo; 292.7 ng/well, 48 hpf, single exposure): 0.43 ng/well and 0.282 ng/well and 0.424 ng/well and 0.261 ng/well
CN(C)C(=O)c1cc2cnc(Nc3ccc(N4CCNCC4)cn3)nc2n1C1CCCC1  increase in AUCinf (refers to: midazolam; human; 400 mg once daily, 8 days; relative to: midazolam alone): 3.8 fold
Cc1c(C(=O)NN2CCCCC2)nn(-c2ccc(Cl)cc2Cl)c1-c1ccc(Cl)cc1  fraction unbound (human): 0.0005
O=C(O)C(F)(F)C(F)(F)C(F)(F)C(F)(F)C(F)(F)C(F)(F)F  IC50 (CYP2D6; inhibitor; Tox21 screening): inactive
CC(C)(C)[C@H](NC(=O)C(F)(F)F)C(=O)N1C[C@H]2[C@@H]([C@H]1C(=O)N[C@H](C#N)C[C@@H]1CCNC1=O)C2(C)C  fetal weight (rabbit; 1000 mg/kg/day; relative to: control): 0.91 fold
c1ccc2c(c1)-c1cccc3cccc-2c13  Km (substrate; human liver microsomes): 0.629 µM
CS(=O)(=O)NCC1CCOC2(CCN(C(=O)C3(c4ccccc4)CCCC3)CC2)C1 (centres unmarked)  solubility (concentration not given): 240 µM
Cc1c(C(=O)NN2CCCCC2)nn(-c2ccc(Cl)cc2Cl)c1-c1ccccc1I  Ki (CB2 receptor; binding): 577 nM
FC(F)(F)c1ccc2c(c1)[C@@H]1CNC[C@H]2C1  unbound brain-to-plasma ratio (rat; AUC(0-24) based): 0.41
Cc1nc2n(c(=O)c1CCN1CCC(c3noc4cc(F)ccc34)CC1)CCCC2  fraction unbound (mouse): 0.039
COC(=O)[C@@H](N)Cc1ccc(OP2(=O)CO[C@@H](Cn3cnc4c(N)ncnc43)CO2)cc1 (some centres unmarked)  half-life (PBS; pH 6.5, Rp isomer): 5.5 h
O=C1CCc2ccc(OCCCCN3CCN(c4cccc(Cl)c4Cl)CC3)cc2N1  fraction unbound (human): 0.002
CN[C@H](CC(C)C)C(=O)N[C@H]1C(=O)N[C@@H](CC(N)=O)C(=O)N[C@H]2C(=O)NC3C(=O)N[C@H](C(=O)N[C@H](C(=O)NCCC[N+](C)(C)C)c4cc(O)cc(O)c4-c4cc3ccc4O)[C@H](O)c3ccc(c(Cl)c3)Oc3cc2cc(c3OC2OC(CO)C(O)[C@H](O)[C@@H]2O[C@H]2CC(C)(NCc3ccc(-c4ccc(Cl)cc4)cc3)[C@H](O)[C@H](C)O2)Oc2ccc(cc2Cl)[C@H]1O (some centres unmarked)  MTD (mouse): ≥ 50 mg/kg
O=C(O)c1cc(-c2ccc([C@H]3C[C@H]4C[C@@H]3CN4)cc2)c2ccc(-c3ccc(C(F)(F)F)cc3)cc2c1  solubility (pH 4): 1.22 ± 0.05 µg/mL
CCCCCOc1ccc(-c2ccc(-c3ccc(C(=O)N[C@H]4C[C@@H](O)[C@@H](O)NC(=O)[C@@H]5[C@@H](O)[C@@H](C)CN5C(=O)[C@H]([C@@H](C)O)NC(=O)[C@H]([C@H](O)[C@@H](O)c5ccc(O)cc5)NC(=O)[C@@H]5C[C@@H](O)CN5C(=O)[C@H]([C@@H](C)O)NC4=O)cc3)cc2)cc1  AUC(0-inf) (end-stage renal disease; 50 mg single dose, predialysis dosing): 48100 ± 5000 ng·h/mL
NC1CCN(c2c(F)cc3c(=O)c(C(=O)O)cn(C4CC4)c3c2Cl)C1 (centres unmarked)  fraction unbound (mouse): 0.377
C[C@H]1C[C@@H]2[C@H]([C@@H](O)C[C@@]3(C)[C@H]2CC[C@]3(O)C(=O)CO)[C@@]2(C)C=CC(=O)C=C12  Cmax (human, plasma; concentration not given, median of reported values): 313 nM
Cc1ccnc(-c2cc(C)ccn2)c1.[Ru+2].c1ccc(-c2ccnc3c2ccc2c(-c4ccccc4)ccnc23)cc1.c1ccc(-c2ccnc3c2ccc2c(-c4ccccc4)ccnc23)cc1  singlet oxygen quantum yield (acetonitrile): 0.61
C[C@]12CCC(=O)C=C1CC[C@@H]1[C@@H]2CC[C@]2(C)C(=O)CC[C@@H]12  Km (aromatase human placental; substrate): 0.014 µM
CC(C)(C)NCC(O)COc1ccc(NC(=O)NC2CCCCC2)cc1 (centres unmarked)  fraction unbound (mouse): 0.117
Clc1cc2c(cc1Cl)Oc1cc(Cl)c(Cl)cc1O2  lowest dose with hepatic fibrosis (female C57BL/6 mouse; every 28 days for 4 days): 0.03 mg/kg

Excerpt of the above:
O=C1CCc2ccc(OCCCCN3CCN(c4cccc(Cl)c4Cl)CC3)cc2N1  fraction unbound (human): 0.002
CN[C@H](CC(C)C)C(=O)N[C@H]1C(=O)N[C@@H](CC(N)=O)C(=O)N[C@H]2C(=O)NC3C(=O)N[C@H](C(=O)N[C@H](C(=O)NCCC[N+](C)(C)C)c4cc(O)cc(O)c4-c4cc3ccc4O)[C@H](O)c3ccc(c(Cl)c3)Oc3cc2cc(c3OC2OC(CO)C(O)[C@H](O)[C@@H]2O[C@H]2CC(C)(NCc3ccc(-c4ccc(Cl)cc4)cc3)[C@H](O)[C@H](C)O2)Oc2ccc(cc2Cl)[C@H]1O (some centres unmarked)  MTD (mouse): ≥ 50 mg/kg
O=C(O)c1cc(-c2ccc([C@H]3C[C@H]4C[C@@H]3CN4)cc2)c2ccc(-c3ccc(C(F)(F)F)cc3)cc2c1  solubility (pH 4): 1.22 ± 0.05 µg/mL
CCCCCOc1ccc(-c2ccc(-c3ccc(C(=O)N[C@H]4C[C@@H](O)[C@@H](O)NC(=O)[C@@H]5[C@@H](O)[C@@H](C)CN5C(=O)[C@H]([C@@H](C)O)NC(=O)[C@H]([C@H](O)[C@@H](O)c5ccc(O)cc5)NC(=O)[C@@H]5C[C@@H](O)CN5C(=O)[C@H]([C@@H](C)O)NC4=O)cc3)cc2)cc1  AUC(0-inf) (end-stage renal disease; 50 mg single dose, predialysis dosing): 48100 ± 5000 ng·h/mL
NC1CCN(c2c(F)cc3c(=O)c(C(=O)O)cn(C4CC4)c3c2Cl)C1 (centres unmarked)  fraction unbound (mouse): 0.377
